{"data": "Measured values collected from several papers", "note": "Parts stem from different laboratories: compare values within a part only.", "sequence of UniProt Q9BX84 (whole entry, looked up)": "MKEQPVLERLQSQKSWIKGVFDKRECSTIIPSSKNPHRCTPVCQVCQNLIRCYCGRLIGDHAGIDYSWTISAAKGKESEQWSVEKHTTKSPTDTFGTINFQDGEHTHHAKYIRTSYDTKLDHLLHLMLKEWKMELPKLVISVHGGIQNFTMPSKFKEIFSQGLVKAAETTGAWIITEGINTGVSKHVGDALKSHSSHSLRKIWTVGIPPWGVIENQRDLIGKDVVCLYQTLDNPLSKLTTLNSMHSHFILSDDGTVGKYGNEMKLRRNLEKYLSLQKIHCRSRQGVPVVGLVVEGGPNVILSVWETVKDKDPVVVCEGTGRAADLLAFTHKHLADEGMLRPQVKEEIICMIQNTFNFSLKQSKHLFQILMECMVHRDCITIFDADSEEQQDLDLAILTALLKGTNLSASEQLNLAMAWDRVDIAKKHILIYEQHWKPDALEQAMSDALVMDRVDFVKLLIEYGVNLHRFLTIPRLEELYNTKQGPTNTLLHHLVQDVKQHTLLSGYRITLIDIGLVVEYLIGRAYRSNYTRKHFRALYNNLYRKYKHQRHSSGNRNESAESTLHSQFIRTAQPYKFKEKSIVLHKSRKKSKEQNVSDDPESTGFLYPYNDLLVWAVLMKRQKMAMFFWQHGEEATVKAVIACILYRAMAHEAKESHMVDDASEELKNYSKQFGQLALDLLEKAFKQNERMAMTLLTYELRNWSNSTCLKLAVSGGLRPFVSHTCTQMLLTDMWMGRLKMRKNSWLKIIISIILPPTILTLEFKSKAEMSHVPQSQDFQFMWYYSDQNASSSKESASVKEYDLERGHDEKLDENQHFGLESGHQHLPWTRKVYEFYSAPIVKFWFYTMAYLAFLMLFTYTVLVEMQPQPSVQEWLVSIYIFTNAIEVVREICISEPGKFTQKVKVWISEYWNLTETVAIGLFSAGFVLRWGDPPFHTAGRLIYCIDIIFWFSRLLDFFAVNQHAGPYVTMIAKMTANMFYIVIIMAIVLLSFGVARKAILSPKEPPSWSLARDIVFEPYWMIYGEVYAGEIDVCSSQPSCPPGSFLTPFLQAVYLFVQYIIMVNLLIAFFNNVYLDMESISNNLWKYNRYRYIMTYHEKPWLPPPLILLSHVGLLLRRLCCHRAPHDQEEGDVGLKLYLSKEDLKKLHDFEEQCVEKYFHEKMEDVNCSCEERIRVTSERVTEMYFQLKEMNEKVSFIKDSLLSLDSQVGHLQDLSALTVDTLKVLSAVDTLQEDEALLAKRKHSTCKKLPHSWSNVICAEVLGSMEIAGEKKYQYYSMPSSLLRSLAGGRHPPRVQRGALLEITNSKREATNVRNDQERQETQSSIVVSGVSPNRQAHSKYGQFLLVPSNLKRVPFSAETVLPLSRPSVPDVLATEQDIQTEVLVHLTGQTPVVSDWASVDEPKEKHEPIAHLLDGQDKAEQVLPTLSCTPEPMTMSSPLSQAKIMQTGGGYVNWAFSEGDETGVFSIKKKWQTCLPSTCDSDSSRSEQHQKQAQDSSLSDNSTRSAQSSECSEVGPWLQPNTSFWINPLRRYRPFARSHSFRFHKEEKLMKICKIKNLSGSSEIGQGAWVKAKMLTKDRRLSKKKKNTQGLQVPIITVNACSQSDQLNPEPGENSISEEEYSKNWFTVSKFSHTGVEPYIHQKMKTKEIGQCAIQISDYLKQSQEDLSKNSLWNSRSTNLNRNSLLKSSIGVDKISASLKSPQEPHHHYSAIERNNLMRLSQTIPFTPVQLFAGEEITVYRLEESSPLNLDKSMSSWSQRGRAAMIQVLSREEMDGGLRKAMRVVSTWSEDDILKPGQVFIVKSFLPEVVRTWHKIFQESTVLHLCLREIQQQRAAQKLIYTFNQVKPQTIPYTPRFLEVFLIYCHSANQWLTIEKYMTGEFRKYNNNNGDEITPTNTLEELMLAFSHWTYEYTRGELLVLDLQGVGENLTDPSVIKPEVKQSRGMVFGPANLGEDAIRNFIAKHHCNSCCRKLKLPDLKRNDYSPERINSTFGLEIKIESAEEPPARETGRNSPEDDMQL", "sequence of UniProt O94804 (whole entry, looked up)": "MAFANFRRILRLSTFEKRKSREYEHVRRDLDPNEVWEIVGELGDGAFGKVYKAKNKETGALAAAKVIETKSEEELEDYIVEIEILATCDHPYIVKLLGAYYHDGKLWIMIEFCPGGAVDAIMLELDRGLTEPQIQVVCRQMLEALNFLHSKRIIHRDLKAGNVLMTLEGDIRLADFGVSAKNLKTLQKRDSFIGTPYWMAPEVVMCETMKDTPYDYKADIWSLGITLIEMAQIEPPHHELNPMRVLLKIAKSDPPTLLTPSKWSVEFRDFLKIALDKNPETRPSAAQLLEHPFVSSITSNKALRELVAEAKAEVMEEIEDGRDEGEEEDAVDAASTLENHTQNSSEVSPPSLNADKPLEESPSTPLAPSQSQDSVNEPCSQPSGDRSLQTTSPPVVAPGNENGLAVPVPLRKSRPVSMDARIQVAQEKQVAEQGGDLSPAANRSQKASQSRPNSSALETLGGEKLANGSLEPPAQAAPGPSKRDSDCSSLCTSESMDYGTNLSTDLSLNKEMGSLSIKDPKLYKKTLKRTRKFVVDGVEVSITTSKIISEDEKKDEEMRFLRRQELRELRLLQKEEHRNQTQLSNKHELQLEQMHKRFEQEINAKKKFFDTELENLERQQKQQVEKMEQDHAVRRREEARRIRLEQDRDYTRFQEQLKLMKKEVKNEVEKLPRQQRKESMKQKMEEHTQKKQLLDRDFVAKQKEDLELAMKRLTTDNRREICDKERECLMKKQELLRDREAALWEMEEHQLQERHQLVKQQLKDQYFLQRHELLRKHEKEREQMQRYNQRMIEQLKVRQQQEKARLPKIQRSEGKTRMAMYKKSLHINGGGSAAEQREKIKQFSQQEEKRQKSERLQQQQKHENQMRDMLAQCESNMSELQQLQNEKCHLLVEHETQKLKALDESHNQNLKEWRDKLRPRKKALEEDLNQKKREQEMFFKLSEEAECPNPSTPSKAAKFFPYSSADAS", "sequence of UniProt O76039 (whole entry, looked up)": "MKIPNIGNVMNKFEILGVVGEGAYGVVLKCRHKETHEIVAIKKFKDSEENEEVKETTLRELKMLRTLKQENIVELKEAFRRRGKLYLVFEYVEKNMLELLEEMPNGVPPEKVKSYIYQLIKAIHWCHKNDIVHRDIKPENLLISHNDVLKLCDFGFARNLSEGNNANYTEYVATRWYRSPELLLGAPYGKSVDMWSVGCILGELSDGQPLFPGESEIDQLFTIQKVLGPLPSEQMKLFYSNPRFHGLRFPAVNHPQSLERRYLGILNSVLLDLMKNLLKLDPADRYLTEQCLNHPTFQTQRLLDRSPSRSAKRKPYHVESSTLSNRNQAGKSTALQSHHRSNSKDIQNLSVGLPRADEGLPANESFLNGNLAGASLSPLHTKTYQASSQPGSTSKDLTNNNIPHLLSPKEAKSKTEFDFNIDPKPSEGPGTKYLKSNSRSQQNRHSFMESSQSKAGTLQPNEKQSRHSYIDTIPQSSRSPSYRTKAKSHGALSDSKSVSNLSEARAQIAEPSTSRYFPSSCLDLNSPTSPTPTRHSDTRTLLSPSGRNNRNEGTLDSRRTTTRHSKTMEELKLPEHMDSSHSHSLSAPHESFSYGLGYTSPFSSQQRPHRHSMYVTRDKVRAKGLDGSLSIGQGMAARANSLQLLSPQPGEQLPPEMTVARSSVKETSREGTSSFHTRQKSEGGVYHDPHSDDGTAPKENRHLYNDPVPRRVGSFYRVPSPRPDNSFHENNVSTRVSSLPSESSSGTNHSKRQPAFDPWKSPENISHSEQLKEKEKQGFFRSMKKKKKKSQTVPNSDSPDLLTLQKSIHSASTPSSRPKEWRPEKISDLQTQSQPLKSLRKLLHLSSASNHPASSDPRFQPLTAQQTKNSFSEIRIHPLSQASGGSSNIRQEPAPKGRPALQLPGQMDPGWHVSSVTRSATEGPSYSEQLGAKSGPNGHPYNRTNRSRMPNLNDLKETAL", "sequence of UniProt Q12852 (whole entry, looked up)": "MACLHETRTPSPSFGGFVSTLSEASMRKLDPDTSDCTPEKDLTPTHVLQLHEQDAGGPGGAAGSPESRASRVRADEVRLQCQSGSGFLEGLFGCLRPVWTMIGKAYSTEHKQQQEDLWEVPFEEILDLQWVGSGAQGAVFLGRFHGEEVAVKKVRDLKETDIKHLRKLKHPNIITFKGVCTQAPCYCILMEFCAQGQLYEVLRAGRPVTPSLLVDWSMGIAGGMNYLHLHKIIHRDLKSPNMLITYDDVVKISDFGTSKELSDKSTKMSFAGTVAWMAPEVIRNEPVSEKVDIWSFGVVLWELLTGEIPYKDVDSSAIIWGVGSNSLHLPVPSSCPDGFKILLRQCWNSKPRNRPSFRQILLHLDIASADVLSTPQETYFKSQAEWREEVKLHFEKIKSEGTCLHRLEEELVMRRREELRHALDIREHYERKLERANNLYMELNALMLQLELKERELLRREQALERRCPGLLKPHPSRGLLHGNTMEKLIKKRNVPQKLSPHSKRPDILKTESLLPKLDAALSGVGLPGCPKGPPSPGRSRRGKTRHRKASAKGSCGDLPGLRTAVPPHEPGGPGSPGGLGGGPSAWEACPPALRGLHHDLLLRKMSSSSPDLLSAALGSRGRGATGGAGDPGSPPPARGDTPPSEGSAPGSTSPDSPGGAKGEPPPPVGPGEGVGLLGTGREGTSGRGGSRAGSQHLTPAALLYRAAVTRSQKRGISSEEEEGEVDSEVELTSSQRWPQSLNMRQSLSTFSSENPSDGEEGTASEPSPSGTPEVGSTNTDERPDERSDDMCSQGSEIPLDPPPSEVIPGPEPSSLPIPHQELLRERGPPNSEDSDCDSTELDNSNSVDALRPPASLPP", "sequence of UniProt Q00535 (whole entry, looked up)": "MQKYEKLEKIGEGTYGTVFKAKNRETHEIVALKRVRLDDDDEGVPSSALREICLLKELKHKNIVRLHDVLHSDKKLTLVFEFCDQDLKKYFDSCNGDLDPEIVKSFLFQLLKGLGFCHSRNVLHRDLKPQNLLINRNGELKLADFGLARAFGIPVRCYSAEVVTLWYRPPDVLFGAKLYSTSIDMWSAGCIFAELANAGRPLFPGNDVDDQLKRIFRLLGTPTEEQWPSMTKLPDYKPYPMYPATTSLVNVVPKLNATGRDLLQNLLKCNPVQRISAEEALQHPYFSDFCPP"}
{"data": "Sample 1", "Compound": "CNC(=O)Nc1ccc2c(c1)CC[C@@]21OC(=O)N(CC(=O)N(Cc2ccc(F)cc2)[C@@H](C)C(F)(F)F)C1=O", "method": "competition with immobilised ligand", "concentration": "1 µM"}
{"target": "Phosphatidylinositol 5-phosphate 4-kinase type-2 gamma (PIP4K2C, Homo sapiens, UniProt Q8TBX8)", "assay": "cell-free assay", "remaining binding [%]": 93}
{"target": "5'-AMP-activated protein kinase catalytic subunit alpha-1 (PRKAA1, Homo sapiens, UniProt Q13131)", "assay": "cell-free assay", "remaining binding [%]": 100}
{"target": "ALK tyrosine kinase receptor (ALK, Homo sapiens, UniProt Q9UM73, L1196M)", "assay": "cell-free assay", "remaining binding [%]": 75}
{"target": "Atypical kinase COQ8A, mitochondrial (COQ8A, Homo sapiens, UniProt Q8NI60)", "assay": "cell-free assay", "remaining binding [%]": 74}
{"target": "Serine/threonine-protein kinase PLK4 (PLK4, Homo sapiens, UniProt O00444)", "assay": "cell-free assay", "remaining binding [%]": 100}
{"target": "Tyrosine-protein kinase ZAP-70 (ZAP70, Homo sapiens, UniProt P43403)", "assay": "cell-free assay", "remaining binding [%]": 73}
{"target": "Tyrosine-protein kinase Fgr (FGR, Homo sapiens, UniProt P09769)", "assay": "cell-free assay", "remaining binding [%]": 75}
{"target": "Phosphatidylinositol 3-kinase C2 domain-containing subunit gamma (PIK3C2G, Homo sapiens, UniProt O75747)", "assay": "cell-free assay", "remaining binding [%]": 75}
{"target": "Activin receptor type-1-like (ACVRL1, Homo sapiens, UniProt P37023)", "assay": "binding", "remaining binding [%]": 72}
{"target": "Mitogen-activated protein kinase kinase kinase 12 (MAP3K12, Homo sapiens, UniProt Q12852)", "assay": "cell-free assay", "remaining binding [%]": 100}
{"target": "Serine/threonine-protein kinase ULK2 (ULK2, Homo sapiens, UniProt Q8IYT8)", "assay": "cell-free assay", "remaining binding [%]": 82}
{"target": "Transient receptor potential cation channel subfamily M member 6 (TRPM6, Homo sapiens, UniProt Q9BX84)", "assay": "cell-free assay", "remaining binding [%]": 100}
{"target": "Calcium/calmodulin-dependent protein kinase type 1G (CAMK1G, Homo sapiens, UniProt Q96NX5)", "assay": "cell-free assay", "remaining binding [%]": 100}
{"target": "Cyclin-dependent kinase-like 5 (CDKL5, Homo sapiens, UniProt O76039)", "assay": "binding", "remaining binding [%]": 69}
{"target": "Serine/threonine-protein kinase ULK1 (ULK1, Homo sapiens, UniProt O75385)", "assay": "cell-free assay", "remaining binding [%]": 70}
{"data": "Sample 2", "Structure (SMILES)": "CC(C)n1cnc(-c2ccc(F)cc2)c1-c1ncc(C(=O)Nc2ccc(N3CCN(C)CC3)cc2)[nH]1"}
{"assay": "refers to: soft tissue infection", "test system": "idiopathic pulmonary fibrosis patients", "setting": "30 mg once daily", "patients with TEAE [%]": 0}
{"assay": "phase 2a trial", "test system": "patients with idiopathic pulmonary fibrosis", "setting": "60 mg once daily, renal and urinary disorders SOC, grade 5", "patients with TEAE [%]": 0}
{"assay": "phase 2a trial", "test system": "patients with idiopathic pulmonary fibrosis", "setting": "dose not given, atopic dermatitis, grade 3, all arms", "patients with TEAE [%]": 0}
{"assay": "phase 2a trial", "test system": "patients with idiopathic pulmonary fibrosis", "setting": "60 mg once daily, renal and urinary disorders SOC, grade 3", "patients with TEAE [%]": 0}
{"assay": "phase 2a trial", "test system": "patients with idiopathic pulmonary fibrosis", "setting": "30 mg once daily, eye swelling, grade 2", "patients with TEAE [%]": 0}
{"assay": "phase 2a trial", "test system": "idiopathic pulmonary fibrosis patients", "setting": "oral, 30 mg once daily, CK-MB increased, grade 2", "patients with TEAE [%]": 0}
{"assay": "refers to: lower respiratory tract infection", "test system": "idiopathic pulmonary fibrosis patients", "setting": "60 mg once daily", "patients with TEAE [%]": 0}
{"data": "Sample 3", "Compound": "CCOc1cc2ncnc(Nc3cccc(Br)c3)c2cc1OCC", "read-out": "enzyme activity", "mode": "inhibitor", "concentration": "0.5 µM", "relative to": "control"}
{"target": "Mitogen-activated protein kinase 9 (MAPK9, Homo sapiens, UniProt P45984)", "remaining activity [%]": 98.5}
{"target": "STE20/SPS1-related proline-alanine-rich protein kinase (STK39, Homo sapiens, UniProt Q9UEW8)", "remaining activity [%]": 110}
{"target": "Tyrosine-protein kinase Lyn, isoform B (LYN, Homo sapiens, UniProt P07948)", "remaining activity [%]": 49.5}
{"target": "cAMP-dependent protein kinase catalytic subunit alpha (PRKACA, Homo sapiens, UniProt P17612)", "remaining activity [%]": 98.9}
{"target": "Calcium/calmodulin-dependent protein kinase kinase 2 (CAMKK2, Homo sapiens, UniProt Q96RR4)", "remaining activity [%]": 101}
{"target": "Serine/threonine-protein kinase Nek2 (NEK2, Homo sapiens, UniProt P51955)", "remaining activity [%]": 98.7}
{"target": "Calcium/calmodulin-dependent protein kinase type II subunit delta (CAMK2D, Homo sapiens, UniProt Q13557)", "remaining activity [%]": 87}
{"target": "Serine/threonine-protein kinase 10 (STK10, Homo sapiens, UniProt O94804)", "remaining activity [%]": 30.5}
{"target": "Mitogen-activated protein kinase kinase kinase 3 (MAP3K3, Homo sapiens, UniProt Q99759)", "remaining activity [%]": 92.9}
{"target": "cGMP-dependent protein kinase 1, isoform beta (PRKG1, Homo sapiens, UniProt Q13976)", "remaining activity [%]": 96}
{"target": "Protein kinase C beta type, isoform beta-I (PRKCB, Homo sapiens, UniProt P05771)", "remaining activity [%]": 100}
{"target": "TGF-beta receptor type-2 (TGFBR2, Homo sapiens, UniProt P37173)", "remaining activity [%]": 83.4}
{"target": "TGF-beta receptor type-1 (TGFBR1, Homo sapiens, UniProt P36897)", "remaining activity [%]": 96.9}
{"target": "Death-associated protein kinase 1 (DAPK1, Homo sapiens, UniProt P53355)", "remaining activity [%]": 77.4}
{"target": "Inhibitor of nuclear factor kappa-B kinase subunit epsilon (IKBKE, Homo sapiens, UniProt Q14164)", "remaining activity [%]": 98.7}
{"target": "Inhibitor of nuclear factor kappa-B kinase subunit beta (IKBKB, Homo sapiens, UniProt O14920)", "remaining activity [%]": 102}
{"target": "Serine/threonine-protein kinase Chk2 (CHEK2, Homo sapiens, UniProt O96017)", "remaining activity [%]": 92}
{"target": "Cyclin-dependent kinase 5, with p25 (CDK5, Homo sapiens, UniProt Q00535)", "remaining activity [%]": 89.5}
{"target": "Protein kinase C alpha type (PRKCA, Homo sapiens, UniProt P17252)", "remaining activity [%]": 85.3}
{"target": "Serine/threonine-protein kinase OSR1 (OXSR1, Homo sapiens, UniProt O95747)", "remaining activity [%]": 102}
{"target": "G protein-coupled receptor kinase 3 (GRK3, Homo sapiens, UniProt P35626)", "remaining activity [%]": 93.8}
{"target": "Death-associated protein kinase 2 (DAPK2, Homo sapiens, UniProt Q9UIK4)", "remaining activity [%]": 103}
{"data": "Sample 4", "cell line": "HaCaT", "concentration": "100 µM", "time": "36 h"}
{"Compound": "CC(C)C(=O)Oc1ccc(CO)cc1[C@H](CCN(C(C)C)C(C)C)c1ccccc1", "viability [%]": 5.06}
{"Compound": "C1N2CN3CN1CN(C2)C3", "viability [%]": 85.6}
{"Compound": "CC[C@@H]1/C=C(\\C)C[C@H](C)C[C@H](OC)[C@H]2O[C@@](O)(C(=O)C(=O)N3CCCC[C@H]3C(=O)O[C@H](/C(C)=C/[C@@H]3CC[C@H](Cl)[C@H](OC)C3)[C@H](C)[C@@H](O)CC1=O)[C@H](C)C[C@@H]2OC", "viability [%]": 92}
{"Compound": "CCCCC1(COC(=O)CCC(=O)O)C(=O)N(c2ccccc2)N(c2ccccc2)C1=O", "viability [%]": 91.5}
{"Compound": "CO/N=C(\\C(=O)N[C@@H]1C(=O)N2C(C(=O)O)=C(COC(N)=O)CS[C@H]12)c1ccco1", "viability [%]": 114}
{"Compound": "CN1C[C@@H]2C[C@H]1CN2c1cc2c(cc1F)c(=O)c(C(=O)O)cn2C1CC1", "viability [%]": 37.4}
{"note": "A few entries again (sample 2):"}
{"assay": "refers to: soft tissue infection", "test system": "idiopathic pulmonary fibrosis patients", "setting": "30 mg once daily", "patients with TEAE [%]": 0}
{"assay": "refers to: lower respiratory tract infection", "test system": "idiopathic pulmonary fibrosis patients", "setting": "60 mg once daily", "patients with TEAE [%]": 0}
{"assay": "phase 2a trial", "test system": "idiopathic pulmonary fibrosis patients", "setting": "oral, 30 mg once daily, CK-MB increased, grade 2", "patients with TEAE [%]": 0}
{"assay": "phase 2a trial", "test system": "patients with idiopathic pulmonary fibrosis", "setting": "30 mg once daily, eye swelling, grade 2", "patients with TEAE [%]": 0}
